Published values gathered from unrelated publications.
Numbered parts are unrelated; each lists some results of a single study. Substitutions count along the parent as printed.

Set 1
Target: Sal-like protein 4, full length isoform A (SALL4, Homo sapiens, UniProt Q9UJQ4, residues 1-1053)
Chain of UniProt Q9UJQ4 (whole entry, looked up): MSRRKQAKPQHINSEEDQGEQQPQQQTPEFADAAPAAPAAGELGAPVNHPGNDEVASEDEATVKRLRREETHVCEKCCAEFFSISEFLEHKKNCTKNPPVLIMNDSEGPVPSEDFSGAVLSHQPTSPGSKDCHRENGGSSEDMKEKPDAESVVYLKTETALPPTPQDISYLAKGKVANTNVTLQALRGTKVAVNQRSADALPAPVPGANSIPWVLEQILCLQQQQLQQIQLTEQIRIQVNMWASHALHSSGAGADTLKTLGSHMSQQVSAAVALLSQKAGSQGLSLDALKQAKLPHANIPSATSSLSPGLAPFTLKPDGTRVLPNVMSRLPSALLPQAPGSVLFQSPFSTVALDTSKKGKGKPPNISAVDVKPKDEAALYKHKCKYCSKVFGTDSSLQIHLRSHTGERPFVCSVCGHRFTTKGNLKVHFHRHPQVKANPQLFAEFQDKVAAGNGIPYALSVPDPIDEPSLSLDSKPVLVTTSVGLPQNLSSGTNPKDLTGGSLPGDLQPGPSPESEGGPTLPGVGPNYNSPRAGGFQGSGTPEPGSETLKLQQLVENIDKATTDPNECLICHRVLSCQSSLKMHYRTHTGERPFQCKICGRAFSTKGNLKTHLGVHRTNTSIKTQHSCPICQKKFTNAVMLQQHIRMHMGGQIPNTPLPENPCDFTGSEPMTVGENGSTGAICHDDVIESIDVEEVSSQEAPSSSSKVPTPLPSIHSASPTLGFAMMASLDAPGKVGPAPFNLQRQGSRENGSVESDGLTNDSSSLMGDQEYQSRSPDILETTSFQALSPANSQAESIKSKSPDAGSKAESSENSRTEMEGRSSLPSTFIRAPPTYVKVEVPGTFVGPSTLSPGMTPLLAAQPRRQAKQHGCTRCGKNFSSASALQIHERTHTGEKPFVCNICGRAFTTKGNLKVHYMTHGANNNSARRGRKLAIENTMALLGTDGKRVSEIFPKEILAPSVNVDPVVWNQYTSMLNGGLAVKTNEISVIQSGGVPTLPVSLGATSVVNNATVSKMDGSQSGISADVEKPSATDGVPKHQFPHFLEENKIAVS
Technique: universal PBM
Molecule type: double-stranded DNA, one strand shown
Matrix: in vitro
Concentration: 600 nM
Setting: 8-mer, flanks averaged, mean of replicates
Reading: higher = stronger binding
Quantity: E-score
AACTCAAG: 0.147
GTCAGGAA: 0.0584
GCAATGAC: -0.0234
GACATTGA: 0.0379
ATAAAAAA: 0.343
CAACATAA: 0.3
GTAGTCCA: -0.0661
CAGCTAGG: -0.193
CTGATTGA: 0.0271
CAGGTTTC: -0.127
CTATCTTC: 0.202
GGTAGGTA: -0.0868
CAGAAGCC: -0.131
CGATGCAC: -0.156
AGTGGCCG: -0.337
CCTCAGCG: -0.158
CGTGGATA: 0.0237
AACTAACG: 0.0887
ACCTAACT: 0.0504

Set 2
Target: CCNE2, cyclin fold, Cln2 fusion (human)
Technique: yeast growth competition, sequencing
Matrix: yeast
Setting: weak parent motif
Reference: not given
Reading: higher = stronger binding
Quantity: normalised enrichment score
Parent: RB1 docking peptide (human); PKPLKKLRFDIEG
PKPLKKLRFDIED [G13D]: 0.497
PKPLKKLRFSIEG [D10S]: -0.168
PHPLKKLRFDIEG [K2H]: 0.876
PKPLKKLRFDIEY [G13Y]: -0.00714
PKPLKYLRFDIEG [K6Y]: 0.199
PKPLKKDRFDIEG [L7D]: -0.724
PKPLKKLRFDIDG [E12D]: -0.104
PKPLKKLRFDMEG [I11M]: 0.551
PKPLKKLREDIEG [F9E]: -0.926
SKPLKKLRFDIEG [P1S]: 0.287
PKPLKKLRMDIEG [F9M]: 0.94
PKPLKKLRFDIEF [G13F]: 0.531
PKPLKDLRFDIEG [K6D]: 0.135
PKPLKVLRFDIEG [K6V]: 0.674
PKELKKLRFDIEG [P3E]: 1.15
PKPLKHLRFDIEG [K6H]: 0.741
PKPLKKLRFDIWG [E12W]: 0.649

Set 3
Target: Ras GTPase-activating protein-binding protein 1, RRM domain (G3BP1, Homo sapiens, UniProt Q13283)
Chain of UniProt Q13283 (whole entry, looked up): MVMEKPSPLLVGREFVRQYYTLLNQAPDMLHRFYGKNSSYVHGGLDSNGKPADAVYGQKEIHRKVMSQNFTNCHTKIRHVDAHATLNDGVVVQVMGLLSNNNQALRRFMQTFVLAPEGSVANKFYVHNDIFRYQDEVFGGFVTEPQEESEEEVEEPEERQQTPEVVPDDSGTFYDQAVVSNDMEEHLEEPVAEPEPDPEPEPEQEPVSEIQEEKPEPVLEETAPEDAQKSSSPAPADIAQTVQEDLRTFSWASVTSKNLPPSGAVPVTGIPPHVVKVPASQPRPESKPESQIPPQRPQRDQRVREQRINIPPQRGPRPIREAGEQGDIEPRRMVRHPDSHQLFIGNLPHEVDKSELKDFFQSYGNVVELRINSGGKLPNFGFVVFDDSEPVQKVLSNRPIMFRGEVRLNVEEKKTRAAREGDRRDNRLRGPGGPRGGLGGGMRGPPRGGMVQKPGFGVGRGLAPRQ
Technique: RNA Bind-n-Seq
Molecule type: RNA
Matrix: in vitro
Concentration: 1 µM
Setting: whole 134-nt RNA, ends assumed
Together with: 150 mM KCl
Reference: input library
Reading: higher = stronger binding
Quantity: log2 enrichment
Shared flanks, not repeated: GGGAGUUCUACAGUCCGACGAUC … UGGAAUUCUCGGGUGUCAAGG
CCUCAAGUCCUGUGCUACACAUCGUAUGUACCGAAUCGGAGGAGGUUUUUGGAAAGUAUUAUGUUACGCCGUUCGGAUCUGCACUUCCAG: -0.215
UCCUGUGCUACACAUCGUAUGUACCGAAUCGGCCCCCCGGGCCCCCCGGGCCCCCCGGGAAAGUAUUAUGUUACGCCGUUCGGAUCUGCA: -0.442
UCCCGACAUCUGUGGCCCUGGCACCAAGAAGGUUCAUGUCAUCUUCAACUACAAGGGCAAGAACGUGCUGAUCAACAAGGACAUCCGUUG: 0.00442
AGUCCUGUGCUACACAUCGUAUGUACCGAAUCGGGGAAAAGGAAAAGGGGAAAAGGGAAAGUAUUAUGUUACGCCGUUCGGAUCUGCACU: 0.0635
AGUCCUGUGCUACACAUCGUAUGUACCGAAUCGGGGUUUUUGGGGAAAGGGGAGGGGAAAGUAUUAUGUUACGCCGUUCGGAUCUGCACU: 1.2
ACCAUGCAGGUGGGCAUCUUUGGGAAGUGGGGCAAGGGGGGGAUAGGGAGGGGGGUAACACUUUGGGAACAGGUGGUCCCAAAACGUUUC: -0.422
UUGAGAAAAGCACCCAUAAUUUGCUACUUGAGGAUUUUAUUCCCUGGAUUCUCUGGAUGCUCAUUGCAUGAAAAGUGGAAAAGUUUAGAU: -0.173
UCCUGUGCUACACAUCGUAUGUACCGAAUCGGGUUUGGGUUUUUUUGGGUUUUUUUGGGAAAGUAUUAUGUUACGCCGUUCGGAUCUGCA: -0.0201
UCCUCAAGUCCUGUGCUACACAUCGUAUGUACCGAAUCGGUGGGUGGGGUGGAAAGUAUUAUGUUACGCCGUUCGGAUCUGCACUUCCAG: -0.142
AAGUCCUGUGCUACACAUCGUAUGUACCGAAUCGGAAAAAGGAAAAAGGAAAAAGGAAAGUAUUAUGUUACGCCGUUCGGAUCUGCACUU: -0.0191
AAGUCCUGUGCUACACAUCGUAUGUACCGAAUCGGGUUUGGGAAAAAAAGGGUGGGAAAGUAUUAUGUUACGCCGUUCGGAUCUGCACUU: 0.608
UGGAGCUACAGAUGGUGUCCUUCCUGCCAGGUGUGUGUGGAGGCCAGUAUGAAGCUGAAAAAGCAGGUGACAGUGUGUGGGGCUGCCAUC: -0.157
CAAGUCCUGUGCUACACAUCGUAUGUACCGAAUCGGGUGGGUGGGAAAAAAAGGGAAAGUAUUAUGUUACGCCGUUCGGAUCUGCACUUC: 0.521
AAGUCCUGUGCUACACAUCGUAUGUACCGAAUCGGGUUUUUUUGGGAAAGGGAGGGAAAGUAUUAUGUUACGCCGUUCGGAUCUGCACUU: 0.464

Other studies, line by line
PhoQ, residues 284 288 289 292 302 303 NSMLDC  fold induction (PhoP, residues 12 14 15 18 19 STWGI (Escherichia coli, UniProt P23836); Sort-seq, item: YFP reporter; E. coli; PhoQ-PhoP variant library, together with: 10 µM Mg2+; reference: high Mg2+ state, higher = stronger signaling): 5.51
